Assay results pooled from the literature.
Parts stem from different laboratories: compare values within a part only.
Sequence of UniProt Q8NE63 (whole entry, looked up): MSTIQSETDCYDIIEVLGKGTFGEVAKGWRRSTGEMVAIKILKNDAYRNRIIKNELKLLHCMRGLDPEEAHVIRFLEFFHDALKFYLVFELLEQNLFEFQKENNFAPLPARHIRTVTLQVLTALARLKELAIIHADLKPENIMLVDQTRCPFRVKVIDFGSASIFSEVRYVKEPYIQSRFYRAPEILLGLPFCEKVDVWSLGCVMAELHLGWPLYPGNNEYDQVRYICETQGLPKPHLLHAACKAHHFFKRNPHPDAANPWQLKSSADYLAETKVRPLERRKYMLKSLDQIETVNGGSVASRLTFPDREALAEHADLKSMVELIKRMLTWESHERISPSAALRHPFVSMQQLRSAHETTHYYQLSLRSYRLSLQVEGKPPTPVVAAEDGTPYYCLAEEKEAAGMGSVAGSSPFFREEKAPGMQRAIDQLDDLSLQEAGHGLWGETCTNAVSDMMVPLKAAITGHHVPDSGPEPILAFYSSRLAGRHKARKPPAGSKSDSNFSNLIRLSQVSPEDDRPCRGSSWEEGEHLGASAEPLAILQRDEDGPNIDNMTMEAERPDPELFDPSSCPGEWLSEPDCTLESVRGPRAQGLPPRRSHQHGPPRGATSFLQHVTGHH
Sequence of UniProt Q12852 (whole entry, looked up): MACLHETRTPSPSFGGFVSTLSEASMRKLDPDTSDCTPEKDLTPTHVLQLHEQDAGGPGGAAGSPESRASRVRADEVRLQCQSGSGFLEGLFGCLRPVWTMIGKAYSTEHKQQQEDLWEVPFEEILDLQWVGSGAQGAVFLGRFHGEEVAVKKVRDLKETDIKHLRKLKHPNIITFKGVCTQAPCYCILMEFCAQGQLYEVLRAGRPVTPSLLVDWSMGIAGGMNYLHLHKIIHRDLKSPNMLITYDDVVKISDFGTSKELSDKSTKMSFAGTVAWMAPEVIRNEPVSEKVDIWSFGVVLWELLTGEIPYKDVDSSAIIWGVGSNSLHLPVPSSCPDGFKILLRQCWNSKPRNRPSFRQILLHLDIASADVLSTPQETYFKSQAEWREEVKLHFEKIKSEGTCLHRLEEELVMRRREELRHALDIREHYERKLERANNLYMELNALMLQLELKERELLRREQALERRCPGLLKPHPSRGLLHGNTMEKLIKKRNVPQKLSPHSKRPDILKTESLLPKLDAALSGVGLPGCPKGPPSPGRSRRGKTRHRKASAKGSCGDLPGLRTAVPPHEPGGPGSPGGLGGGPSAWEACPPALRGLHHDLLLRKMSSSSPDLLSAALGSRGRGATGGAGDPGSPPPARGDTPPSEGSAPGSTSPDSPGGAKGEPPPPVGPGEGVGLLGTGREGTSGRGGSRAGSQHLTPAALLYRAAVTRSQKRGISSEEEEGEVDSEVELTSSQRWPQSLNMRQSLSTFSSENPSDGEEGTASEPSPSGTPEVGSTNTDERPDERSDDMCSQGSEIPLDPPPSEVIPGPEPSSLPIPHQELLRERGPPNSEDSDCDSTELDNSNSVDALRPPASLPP
Sequence of UniProt P09769 (whole entry, looked up): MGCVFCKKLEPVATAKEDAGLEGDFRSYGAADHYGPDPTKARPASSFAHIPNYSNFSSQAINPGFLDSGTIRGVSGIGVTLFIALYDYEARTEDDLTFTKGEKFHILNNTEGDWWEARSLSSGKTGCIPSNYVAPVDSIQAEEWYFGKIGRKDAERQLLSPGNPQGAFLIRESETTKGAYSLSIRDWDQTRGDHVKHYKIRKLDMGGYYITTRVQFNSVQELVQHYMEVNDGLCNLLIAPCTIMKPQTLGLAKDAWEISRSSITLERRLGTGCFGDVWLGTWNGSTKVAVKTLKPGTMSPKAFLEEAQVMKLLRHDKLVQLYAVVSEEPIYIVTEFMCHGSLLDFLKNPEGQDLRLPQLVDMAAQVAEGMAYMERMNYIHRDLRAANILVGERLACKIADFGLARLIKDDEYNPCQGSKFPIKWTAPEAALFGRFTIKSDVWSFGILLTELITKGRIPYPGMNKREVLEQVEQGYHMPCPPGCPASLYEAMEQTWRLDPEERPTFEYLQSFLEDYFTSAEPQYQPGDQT
Sequence of UniProt Q96NX5 (whole entry, looked up): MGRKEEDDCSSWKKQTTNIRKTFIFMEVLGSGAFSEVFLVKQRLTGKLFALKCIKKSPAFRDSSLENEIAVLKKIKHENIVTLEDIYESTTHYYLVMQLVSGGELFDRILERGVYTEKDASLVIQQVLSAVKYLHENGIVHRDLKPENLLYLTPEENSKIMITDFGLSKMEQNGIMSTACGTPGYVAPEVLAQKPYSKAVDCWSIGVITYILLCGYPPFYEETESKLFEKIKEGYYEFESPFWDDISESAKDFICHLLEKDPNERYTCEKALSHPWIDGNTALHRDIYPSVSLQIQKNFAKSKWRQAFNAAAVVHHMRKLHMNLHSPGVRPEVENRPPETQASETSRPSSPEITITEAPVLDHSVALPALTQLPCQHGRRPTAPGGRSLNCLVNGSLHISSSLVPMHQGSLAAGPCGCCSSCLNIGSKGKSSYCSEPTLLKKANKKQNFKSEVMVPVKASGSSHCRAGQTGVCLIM
Sequence of UniProt Q8TBX8 (whole entry, looked up): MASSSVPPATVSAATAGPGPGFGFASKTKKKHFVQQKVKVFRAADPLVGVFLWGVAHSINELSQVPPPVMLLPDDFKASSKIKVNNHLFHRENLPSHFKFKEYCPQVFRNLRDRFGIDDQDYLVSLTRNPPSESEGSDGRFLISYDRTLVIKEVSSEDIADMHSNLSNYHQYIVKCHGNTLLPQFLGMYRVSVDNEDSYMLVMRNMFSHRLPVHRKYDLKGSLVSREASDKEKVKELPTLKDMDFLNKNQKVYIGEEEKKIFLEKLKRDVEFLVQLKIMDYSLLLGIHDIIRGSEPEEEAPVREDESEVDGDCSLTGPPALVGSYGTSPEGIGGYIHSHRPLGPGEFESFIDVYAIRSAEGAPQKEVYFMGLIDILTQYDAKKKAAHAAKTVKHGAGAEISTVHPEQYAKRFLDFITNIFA
Sequence of UniProt Q9H2G2 (whole entry, looked up): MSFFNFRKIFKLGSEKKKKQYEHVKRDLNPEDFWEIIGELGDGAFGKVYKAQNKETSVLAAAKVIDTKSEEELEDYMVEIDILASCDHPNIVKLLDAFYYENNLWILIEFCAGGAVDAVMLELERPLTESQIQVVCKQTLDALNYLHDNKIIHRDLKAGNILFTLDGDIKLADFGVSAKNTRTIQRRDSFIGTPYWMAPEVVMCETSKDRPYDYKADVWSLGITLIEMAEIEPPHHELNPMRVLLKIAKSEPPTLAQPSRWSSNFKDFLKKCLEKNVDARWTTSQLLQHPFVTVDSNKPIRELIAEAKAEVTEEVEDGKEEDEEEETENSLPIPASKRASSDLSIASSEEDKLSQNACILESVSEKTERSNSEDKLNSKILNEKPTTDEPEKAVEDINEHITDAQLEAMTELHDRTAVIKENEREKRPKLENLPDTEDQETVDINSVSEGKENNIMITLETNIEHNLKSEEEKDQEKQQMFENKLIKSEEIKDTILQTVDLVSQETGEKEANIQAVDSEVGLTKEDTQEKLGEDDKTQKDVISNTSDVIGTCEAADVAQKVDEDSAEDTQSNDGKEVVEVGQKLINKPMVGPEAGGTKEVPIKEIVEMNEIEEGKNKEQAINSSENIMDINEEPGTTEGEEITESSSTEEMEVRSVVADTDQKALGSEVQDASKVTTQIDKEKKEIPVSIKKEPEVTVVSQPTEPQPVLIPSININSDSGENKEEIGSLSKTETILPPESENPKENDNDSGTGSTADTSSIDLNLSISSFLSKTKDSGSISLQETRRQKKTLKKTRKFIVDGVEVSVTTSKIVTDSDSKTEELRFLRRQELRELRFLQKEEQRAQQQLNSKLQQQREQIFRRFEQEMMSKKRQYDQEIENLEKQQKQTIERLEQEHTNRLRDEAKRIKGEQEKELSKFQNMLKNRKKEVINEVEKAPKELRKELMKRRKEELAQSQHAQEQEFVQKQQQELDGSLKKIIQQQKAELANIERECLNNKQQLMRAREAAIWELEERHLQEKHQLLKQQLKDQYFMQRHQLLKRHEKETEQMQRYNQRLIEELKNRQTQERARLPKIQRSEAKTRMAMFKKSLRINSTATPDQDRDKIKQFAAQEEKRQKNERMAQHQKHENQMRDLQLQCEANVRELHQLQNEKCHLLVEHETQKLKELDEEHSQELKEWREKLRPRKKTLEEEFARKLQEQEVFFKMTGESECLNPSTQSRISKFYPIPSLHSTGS
Sequence of UniProt Q8IU85 (whole entry, looked up): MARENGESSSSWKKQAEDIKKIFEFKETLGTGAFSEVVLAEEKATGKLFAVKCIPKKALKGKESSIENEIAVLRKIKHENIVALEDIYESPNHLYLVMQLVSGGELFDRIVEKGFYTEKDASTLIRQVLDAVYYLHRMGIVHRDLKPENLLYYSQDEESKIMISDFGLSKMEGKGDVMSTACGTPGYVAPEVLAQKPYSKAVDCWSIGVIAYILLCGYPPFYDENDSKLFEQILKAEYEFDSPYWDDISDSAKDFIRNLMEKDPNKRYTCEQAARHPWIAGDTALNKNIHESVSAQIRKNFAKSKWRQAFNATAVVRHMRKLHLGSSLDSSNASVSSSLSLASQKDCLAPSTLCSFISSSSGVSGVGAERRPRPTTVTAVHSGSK

Set 1
Target: Calcium/calmodulin-dependent protein kinase type II subunit alpha (CAMK2A, Homo sapiens, UniProt Q9UQM7)
Sequence of UniProt Q9UQM7 (whole entry, looked up): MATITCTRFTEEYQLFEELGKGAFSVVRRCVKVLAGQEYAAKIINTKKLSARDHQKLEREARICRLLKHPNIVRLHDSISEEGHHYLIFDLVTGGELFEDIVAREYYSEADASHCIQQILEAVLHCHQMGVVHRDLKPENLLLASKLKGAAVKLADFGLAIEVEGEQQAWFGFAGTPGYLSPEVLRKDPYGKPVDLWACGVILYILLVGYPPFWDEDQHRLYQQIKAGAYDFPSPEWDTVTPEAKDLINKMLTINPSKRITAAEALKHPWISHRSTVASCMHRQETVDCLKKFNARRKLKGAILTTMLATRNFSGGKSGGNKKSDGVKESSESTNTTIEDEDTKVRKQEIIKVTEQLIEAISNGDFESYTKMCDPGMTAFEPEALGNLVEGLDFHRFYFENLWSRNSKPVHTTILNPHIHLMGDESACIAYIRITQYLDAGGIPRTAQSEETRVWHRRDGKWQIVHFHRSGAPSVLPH
Observed: enzyme activity
Mode: inhibitor
Tested at: 10 µM
SMILES | inhibition [%]
C1COC(NC(C2CC2)C2CC2)=N1 | -3
Cn1c(=O)c2[nH]cnc2n(C)c1=O | -2
O=C(c1ccccc1)c1ccc2n1CCC2C(=O)O (stereo not shown) | 8
C[C@@H]1CC[C@@]2(OC1)O[C@H]1C[C@H]3[C@@H]4CC=C5C[C@@H](O)C[C@@H](O)[C@]5(C)[C@H]4CC[C@]3(C)[C@H]1[C@@H]2C | -3
OC[C@@H](O)[C@@H](O)CO | 9
CCN(CCCc1ccccc1)CCCc1ccccc1 | -9
Cc1cc(O[C@@H]2O[C@H](CO)[C@@H](O)[C@H](O)[C@H]2O)c2c(c1)C(=O)c1cc(O)cc(O)c1C2=O | 5
C=C(C)[C@H](CC=C(C)C)Cc1c(O)cc(OC)c2c1O[C@H](c1ccc(O)cc1O)[C@@H](O)C2=O | -22
CC(=O)O[C@H]1[C@H](O[C@H]2CC[C@]34C[C@]35CC[C@]3(C)[C@@H]([C@@]6(C)CC[C@@H](C(C)(C)O)O6)[C@@H](O)C[C@@]3(C)[C@@H]5C[C@H](O[C@@H]3O[C@H](CO)[C@@H](O)[C@H](O)[C@H]3O)[C@H]4C2(C)C)OC[C@@H](OC(C)=O)[C@@H]1O | 17

Set 2
Organism: Plasmodium berghei
Mode: inhibitor
Cells: Huh-7
Strain: GFP-expressing sporozoites, liver stage
Tested at: 10 µM
Time: 24 h
Relative to: untreated control
Compound | infection rate [%]
NCCS | 99.9
O=C(Nc1ccc(C(=O)O)c(O)c1)c1ccccc1 | 81.7
CC1(C)S[C@@H]2[C@H](NC(=O)C(C(=O)O)c3ccccc3)C(=O)N2[C@H]1C(=O)O (stereo partly shown) | 97.9
CC(=O)Oc1ccc2c(c1)CC[C@@H]1[C@@H]2CC[C@]2(C)[C@@H](O)CC[C@@H]12 | 138
Cc1cc(O)cc(C)c1Cl | 109
CC1(C)[C@@H]2CC[C@@]1(C)C(=O)C2 | 118
O=C1CCc2cc(OCCCCc3nnnn3C3CCCCC3)ccc2N1 | 90.8

Set 3
SMILES: CO[C@H]1CC[C@H](CNc2ccc(S(=O)(=O)NC(=O)c3ccc(N4CCN(CC5=C(c6ccc(Cl)cc6)CC(C)(C)CC5)CC4)cc3Oc3cnc4[nH]ccc4c3)cc2[N+](=O)[O-])CC1
Observed: cell-free assay
Method: competition with immobilised ligand
Tested at: 1 µM
target | remaining binding [%]
Atypical kinase COQ8A, mitochondrial (COQ8A, Homo sapiens, UniProt Q8NI60) | 99
Calcium/calmodulin-dependent protein kinase type 1G (CAMK1G, Homo sapiens, UniProt Q96NX5) | 73
Phosphatidylinositol 5-phosphate 4-kinase type-2 gamma (PIP4K2C, Homo sapiens, UniProt Q8TBX8) | 85
Tyrosine-protein kinase Fgr (FGR, Homo sapiens, UniProt P09769) | 100
STE20-like serine/threonine-protein kinase (SLK, Homo sapiens, UniProt Q9H2G2) | 67
Calcium/calmodulin-dependent protein kinase type 1D (CAMK1D, Homo sapiens, UniProt Q8IU85) | 80
Rhodopsin kinase GRK1 (GRK1, Homo sapiens, UniProt Q15835) | 72
Serine/threonine-protein kinase WNK1 (WNK1, Homo sapiens, UniProt Q9H4A3) | 100
Serine/threonine-protein kinase ULK2 (ULK2, Homo sapiens, UniProt Q8IYT8) | 100
Ribosomal protein S6 kinase alpha-6, N-terminal kinase domain (RPS6KA6, Homo sapiens, UniProt Q9UK32) | 67
Homeodomain-interacting protein kinase 4 (HIPK4, Homo sapiens, UniProt Q8NE63) | 4.4
Mitogen-activated protein kinase kinase kinase 12 (MAP3K12, Homo sapiens, UniProt Q12852) | 100
Serine/threonine-protein kinase MARK1 (MARK1, Homo sapiens, UniProt Q9P0L2) | 74
Muscle, skeletal receptor tyrosine-protein kinase (MUSK, Homo sapiens, UniProt O15146) | 100
Tyrosine-protein kinase ZAP-70 (ZAP70, Homo sapiens, UniProt P43403) | 97

Set 4
Compound: COc1cc(C(=O)N2CCC(N3CCN(C)CC3)CC2)ccc1Nc1ncc2c(n1)N(C)c1ccccc1C(=O)N2C
tested on | test | system | setting | inhibition [%]
CDK9 (mouse) | probe labelling, KiNativ, measured: DMkAANVLITR peptide, LYS2 site | brain tissue lysate (mouse) | 0.1 µM, with: ADP acyl-phosphate probe | 21.9
WNK1, WNK2 and WNK4 (human) | probe labelling, KiNativ, measured: IGDLGLATLkR peptide, activation loop | PBMC lysate (human) | 0.1 µM, with: ATP acyl-phosphate probe | 3.7
MST4 (human) | probe labelling, KiNativ ADP probe | human PBMC lysate | concentration not given, LYS1 labelled site | -39.4
human PBMC | probe labeling, inhibitor, KiNativ profiling, measured: ALYATkTLR | cell lysate | concentration not given, LYS1 site, with: ATP acyl-phosphate probe | -5
PRKX and PRKY human | KiNativ profiling | human PBMC | 1 µM, LYS1 site, with: ADP acyl phosphate probe | -8.5
RSKL1 kinase domain 1 (human) | probe labelling, KiNativ, measured: kinase domain site peptide | PBMC lysate (human) | 1 µM, with: ADP acyl-phosphate probe | -9.4
SGK3 (mouse) | probe labelling, KiNativ, measured: FYAVkVLQK peptide, LYS1 site | brain tissue lysate (mouse) | 1 µM, with: ATP acyl-phosphate probe | -13.2
RSK3 domain 2 (mouse) | probe labelling, inhibitor, KiNativ ActivX ADP probe | mouse brain lysate | 1 µM, Lys1 site peptide | 18.3
mouse MER and TYRO3 | probe labelling, KiNativ ATP probe | mouse brain lysate | 0.1 µM | 3.1

Some of these lines once more (set 3):
target | remaining binding [%]
STE20-like serine/threonine-protein kinase (SLK, Homo sapiens, UniProt Q9H2G2) | 67
Calcium/calmodulin-dependent protein kinase type 1D (CAMK1D, Homo sapiens, UniProt Q8IU85) | 80
Rhodopsin kinase GRK1 (GRK1, Homo sapiens, UniProt Q15835) | 72
